Values quoted from earlier work that unrelated publications cite.
Numbers after ± are the reported error. Converted amounts (≈) assume the structure as drawn.

SMILES	assay	test system	setting	scale	quantity	result
Cc1cccc(-c2cccc(C)n2)n1.[Ru+2].c1ccc(-c2cccc(-c3ccccn3)n2)nc1.c1ccncc1		acetonitrile	concentration not given		ligand exchange quantum yield	0.33
O=C1Nc2c(O)cc(Cl)cc2[C@@](C#CC2(O)CC2)(C(F)(F)F)O1		human, cerebrospinal fluid	dose not given		concentration	0.38 to 0.44 ng/mL
CC(C)(C)C1=CC(=NNC(=O)c2ccncc2)C=C(C(C)(C)C)C1=O			pH 6.5		solubility	3.1 to 6.3 µg/mL (≈ 9.13 to 18.6 µM)
CC(C)OC(=O)[C@H](CO)NCc1cc(Cl)c(OCc2cccc(-c3ccccc3)c2Br)cc1OCc1cccnc1		mouse liver S9	40 min		transformation	100%
C=C[C@@H]1C[C@]1(NC(=O)[C@@H]1C[C@@H](Oc2nccc3c(OC)cccc23)CN1C(=O)[C@@H](NC(=O)OC(C)(C)C)C(C)(C)C)C(=O)NS(=O)(=O)C1CC1		rat	oral, dose not given		oral bioavailability	9%
Cc1nc2n(c(=O)c1CCN1CCC(c3noc4cc(F)ccc34)CC1)CCCC2O (stereo not drawn)		mouse			Kp,uu,brain	0.02
OCC1CCN(c2ccc(-c3cc4cc(O)ccc4[nH]3)c([18F])n2)CC1	PET	mice, rats, nonhuman primates			initial brain uptake	0.5 to 0.65 SUV
CN1CCN(c2cc(-c3ccccc3CO)c(N(C)C(=O)C(C)(C)c3cc(C(F)(F)F)cc(C(F)(F)F)c3)cn2)CC1		healthy volunteers, plasma	oral, 450 mg, single dose, netupitant alone		Cmax	93 ng/mL
O=C(CCCCC[N+]#[C][99Tc-5]([C]#[N+]CCCCCC(=O)N[C@H]1C(O)O[C@H](CO)[C@@H](O)[C@@H]1O)([C]#[N+]CCCCCC(=O)N[C@H]1C(O)O[C@H](CO)[C@@H](O)[C@@H]1O)([C]#[N+]CCCCCC(=O)N[C@H]1C(O)O[C@H](CO)[C@@H](O)[C@@H]1O)([C]#[N+]CCCCCC(=O)N[C@H]1C(O)O[C@H](CO)[C@@H](O)[C@@H]1O)[C]#[N+]CCCCCC(=O)N[C@H]1C(O)O[C@H](CO)[C@@H](O)[C@@H]1O)N[C@H]1C(O)O[C@H](CO)[C@@H](O)[C@@H]1O (stereo partly drawn)		mouse A549 xenograft			tumour/blood ratio	60.8 ± 2.86
CN1CCC(C)(C)c2cc3c(-c4ccc(C(=O)N5CCCCC5)s4)c4ccc(=[N+](C)C)cc-4sc3cc21		n-octanol/water			logP	1.7
CC(C)Sc1cccc(O)c(=O)c1O					pKa1	5.9
CC(C)CC(CC(C)C)NC(=O)[C@H](Cc1cnc[nH]1)NC(=O)CNC(=O)[C@@H](NC(=O)[C@H](C)NC(=O)[C@H](Cc1c[nH]c2ccccc12)NC(=O)[C@H](CCC(N)=O)NC(=O)[C@@H](Cc1ccccc1)NC(=O)COCC(=O)Nc1ccc(CNC(=O)CN2CCN(CC(=O)O)CCN(CC(=O)O)CCN(CC(=O)O)CC2)cc1)C(C)C [gallium-68 labelled]		nude mice, PC-3 tumour xenograft, pancreas	250 pmol		tissue uptake	~15 %ID/g
C=C[C@@H]1C[C@]1(NC(=O)[C@@H]1C[C@@H](Oc2ncc(OC)c3ccccc23)CN1C(=O)[C@@H](NC(=O)OC(C)(C)C)C(C)(C)C)C(=O)NS(=O)(=O)C1CC1		isolated perfused rabbit heart	10 µM		heart rate change	-8%
CN(C)c1ccc(-c2cc3cc(I)ccc3o2)cn1		liver	2 min		tissue uptake	31.7 ID%/g
Cc1cc(/C=C2\CN(C(C)C)C/C(=C\c3cc(C)c(O)c(C)c3)C2=O)cc(C)c1O		water			solubility	~32.9 µg/mL (≈ 81.1 µM)
O=S(=O)(c1ccccc1)N1CCCCC1		PBS	24 h, pH 7		recovery	100%
Oc1cccc(-c2cccc(O)n2)n1.[Cl-].[Cl-].[Ru+2].c1cnc2c(c1)ccc1cccnc12.c1cnc2c(c1)ccc1cccnc12					pKa1	5.2
Cc1ccccc1-c1cc(N2CC[N+](C)([O-])CC2)ncc1N(C)C(=O)C(C)(C)c1cc(C(F)(F)F)cc(C(F)(F)F)c1		healthy volunteers, plasma	oral, dose not given, netupitant-palonosetron, fed		Tmax	5.57 h
O=C(O)CCCCCCC(=O)Nc1ccccc1		human		relative to: vorinostat	steady-state serum exposure	13 fold
Cc1ccc2c(c1)nc(CCN1C(=O)c3cccc4cccc(c34)C1=O)n2-c1ccncc1		Sprague-Dawley rat	intravenous, 2.5 mg/kg		AUC(0-inf)	1100 ± 215 ng·h/mL
C=C[C@@H]1C[C@]1(NC(=O)[C@@H]1C[C@@H](Oc2cc(-c3ccccc3)nc3cc(OC)ccc23)CN1C(=O)[C@@H](NC(=O)OC(C)(C)C)C(C)(C)C)C(=O)NS(=O)(=O)C1CC1		rat	intravenous, 5 mg/kg		half-life	1 h
COc1cc2c(c(OC)c1OC)-c1c(cc(OC)c(OC)c1OC)C[C@](C)(O)[C@@H](C)C2		rat	oral, purified compound		oral bioavailability	16%
COCCOCCOCCOCCC(=O)NCc1cc(CNC(=O)CCOCCOCCOCCOC)cc(-c2cc3cc4nc(c(OC)c5[nH]c(cc6nc(cc2[nH]3)CC6(C)C)cc5-c2cc(CNC(=O)CCOCCOCCOCCOC)cc(CNC(=O)CCOCCOCCOCCOC)c2)CC4(C)C)c1		DMF	room temperature		Qy emission FWHM	24 nm
CSCCN(CCSC)CCc1ccccn1			mixed-mode protonation constant		log KH2	3.26
O=C([O-])CN1CCN(CC(=O)[O-])CCN(CC(=O)c2ccccc2)CCN(CC(=O)[O-])CC1.[Gd+3]			concentration not given, TSAP isomer		activation enthalpy of water exchange	6.45 kcal/mol
O=C([O-])CN1CCN(CC(=O)[O-])CCN(CC(=O)NCC2CCC(C(=O)NC(Cc3ccc4ccccc4c3)C(=O)NCCCCC(NC(=O)NC(CCC(=O)O)C(=O)O)C(=O)O)CC2)CCN(CC(=O)[O-])CC1.[68Ga+3] (stereo not drawn)		human, spleen	literature data		absorbed dose	0.029 mSv/MBq
CCCCCCc1ccc(Oc2ccccc2C#N)c(O)c1		mouse	40 mg/kg		clearance	180 mL/min/kg
Cc1ccc(/N=N/c2c(O)ccc3ccccc23)c(C)c1			phenolic hydroxyl		pKa	11.7
Cc1ccccc1-c1cc(N2CCNCC2)ncc1N(C)C(=O)C(C)(C)c1cc(C(F)(F)F)cc(C(F)(F)F)c1		healthy volunteers, plasma	oral, 450 mg, single dose, added: palonosetron 0.75 mg		Cmax	59.1 ng/mL
C=CC1CC1(NC(=O)C1CC(Oc2nccc3cc(OC)ccc23)CN1C(=O)C(NC(=O)OC(C)(C)C)C(C)C)C(=O)NS(=O)(=O)C1CC1 (stereo not drawn)		isolated perfused rabbit heart	10 µM		heart rate change	-32%

Repeated from above:
SMILES	assay	test system	setting	scale	quantity	result
Cc1ccccc1-c1cc(N2CC[N+](C)([O-])CC2)ncc1N(C)C(=O)C(C)(C)c1cc(C(F)(F)F)cc(C(F)(F)F)c1		healthy volunteers, plasma	oral, dose not given, netupitant-palonosetron, fed		Tmax	5.57 h
CC(C)CC(CC(C)C)NC(=O)[C@H](Cc1cnc[nH]1)NC(=O)CNC(=O)[C@@H](NC(=O)[C@H](C)NC(=O)[C@H](Cc1c[nH]c2ccccc12)NC(=O)[C@H](CCC(N)=O)NC(=O)[C@@H](Cc1ccccc1)NC(=O)COCC(=O)Nc1ccc(CNC(=O)CN2CCN(CC(=O)O)CCN(CC(=O)O)CCN(CC(=O)O)CC2)cc1)C(C)C [gallium-68 labelled]		nude mice, PC-3 tumour xenograft, pancreas	250 pmol		tissue uptake	~15 %ID/g
Cc1nc2n(c(=O)c1CCN1CCC(c3noc4cc(F)ccc34)CC1)CCCC2O (stereo not drawn)		mouse			Kp,uu,brain	0.02
CN(C)c1ccc(-c2cc3cc(I)ccc3o2)cn1		liver	2 min		tissue uptake	31.7 ID%/g
C=CC1CC1(NC(=O)C1CC(Oc2nccc3cc(OC)ccc23)CN1C(=O)C(NC(=O)OC(C)(C)C)C(C)C)C(=O)NS(=O)(=O)C1CC1 (stereo not drawn)		isolated perfused rabbit heart	10 µM		heart rate change	-32%
